Assay results pooled from the literature.
Parts stem from different laboratories: compare values within a part only. Changes are numbered by the printed parent chain.

Study 1
Target: CCNF, cyclin fold, Cln2 fusion (human)
Method: yeast growth competition, sequencing
Medium: yeast
Setting: strong parent motif
Baseline: not given
Reading: higher = stronger binding
Starting sequence: E2F1 docking peptide (human); PPVKRRLDLETDH
`PPVLRRLDLETDH [K4L]` — result for “normalised enrichment score”: 1.4.
Under “normalised enrichment score”, `PPVKRRLDLATDH [E10A]` is recorded as 7.14.
`PPVKRRLDLETDL [H13L]` — result for “normalised enrichment score”: 7.03.
`PPVTRRLDLETDH [K4T]` — result for “normalised enrichment score”: 1.92.
`PPVKRRLDLETDW [H13W]`: “normalised enrichment score” 6.94.
Under “normalised enrichment score”, `PPVKRRLDLEGDH [T11G]` is recorded as 6.09.
`PPVKRRLDLRTDH [E10R]` — result for “normalised enrichment score”: 6.21.
Under “normalised enrichment score”, `PPVKRRLDLETPH [D12P]` is recorded as 8.49.
For `PPVKRRLDLETHH [D12H]`, “normalised enrichment score” read 7.08.
`PCVKRRLDLETDH [P2C]` — result for “normalised enrichment score”: 5.89.
Under “normalised enrichment score”, `PPVKRRMDLETDH [L7M]` is recorded as 0.788.
`PPVKRRLDLEQDH [T11Q]` — result for “normalised enrichment score”: 5.49.
Under “normalised enrichment score”, `PPVKRRGDLETDH [L7G]` is recorded as 0.375.

Study 2
Target: Interferon regulatory factor 5, full length, phosphomimetic (IRF5, Homo sapiens, UniProt Q13568-2, residues 1-514, K96S/S451D/S453D/S456D/S462D)
Method: protein-binding microarray
Form: double-stranded DNA, one strand shown
Medium: in vitro
Tested at: 250 nM
Setting: 60-bp whole probe
With: salmon DNA 0.4 mg/ml
Baseline: random background probes
Reading: higher = stronger binding
Constant ends, left off below: GCCTAGCAC … GTCTTGATTCGCTTGACGCTGCTG
The log fluorescence of `GACGGTCTCGGATTCGGGACGTGCTAG` is reported as -0.169 z-score.
`TTAGGTTCCGGTTTCGTTTAGTGCTAG` has a log fluorescence of 6.9 z-score.
`TCAACTCCCCAACTCGCACTGTGCTAG` has a log fluorescence of -0.403 z-score.
With `TCATCGTAAGCAAAAATACTGTGCTAG` the log fluorescence was 0.643 z-score.
With `TGCTTCCTCTTTTTTGTTCCGTGCTAG` the log fluorescence was 1.07 z-score.
With `TTAGAACTGAGACTGGATTCGTGCTAG` the log fluorescence was -0.121 z-score.
With `TTAGGTATCGGTCCCGGTTAGTGCTAG` the log fluorescence was 5.77 z-score.
`TCATTTTTCTCCTATTTAACTGTGCTA` gave a log fluorescence of 2.19 z-score.
The log fluorescence of `TCAGTTTTCGCTTTCTTACTGTGCTAG` is reported as 5.56 z-score.
`TACGATATCAGTTTCGAGACGTGCTAG` gave a log fluorescence of 6.61 z-score.
With `TTAGATTTCGGGTATCGGTTAGTGCTA` the log fluorescence was 7.78 z-score.
For `TTAGGTTTCCTTTCCCTTTCGTGCTAG`, the log fluorescence was 2.68 z-score.
`TTAGGTATCGGTTTCGCTTAGTGCTAG` gave a log fluorescence of 10.1 z-score.
The log fluorescence of `TGCTATACCACTCTTGCTTTGTGCTAG` is reported as 0.151 z-score.
With `GACGGTTTCGGGACTGGGGGCGTGCTA` the log fluorescence was 5.54 z-score.
For `TTTTTTTTTTCCCTGAAAAAGTGCTAG`, the log fluorescence was 1.83 z-score.
`TCAGAACTGAGTATCGATTAGTGCTAG` gave a log fluorescence of 6.75 z-score.
For `TCAAATATATATTCATAACTGTGCTAG`, the log fluorescence was 0.749 z-score.
The log fluorescence of `TCAACTTTGCTCTGTGCGACTGTGCTA` is reported as -0.00543 z-score.

Study 3
Target: CREB3, bZIP domain (human)
Method: DHFR protein complementation
Medium: yeast
Setting: single substitutions, most at no-binding floor
Baseline: wild-type JUN-FOS pair
Reading: higher = stronger binding
Starting sequence: JUN, bZIP domain (human); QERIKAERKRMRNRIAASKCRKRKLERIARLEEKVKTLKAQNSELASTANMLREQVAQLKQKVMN; partner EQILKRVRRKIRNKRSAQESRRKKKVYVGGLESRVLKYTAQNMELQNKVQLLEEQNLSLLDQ
The binding fitness of `T48K` is reported as -1.3 natural log.
The binding fitness of `L38C` is reported as -1.49 natural log.
The binding fitness of `L31T` is reported as -1.38 natural log.
For `E33Q`, the binding fitness was -1.4 natural log.
For `M51Y`, the binding fitness was -1.42 natural log.
`S47T` gave a binding fitness of -1.26 natural log.
`K34W` has a binding fitness of -1.49 natural log.
`T37K` has a binding fitness of -1.4 natural log.
`E54R` gave a binding fitness of -1.31 natural log.
`A29C` gave a binding fitness of -1.4 natural log.
`L59C` has a binding fitness of -1.5 natural log.
With `R53H` the binding fitness was -1.5 natural log.
The binding fitness of `E54M` is reported as -1.59 natural log.

Mixed results
`PhoQ, residues 284 288 289 292 302 303 SVTLVV` has a fold induction of 0.944 (PhoP, residues 12 14 15 18 19 HHYTI (Escherichia coli, UniProt P23836); Sort-seq, item: YFP reporter; E. coli; PhoQ-PhoP variant library, with: 10 µM Mg2+; baseline: high Mg2+ state, higher = stronger signaling).

Excerpt of the above (study 1):
Under “normalised enrichment score”, `PPVKRRLDLATDH [E10A]` is recorded as 7.14.
`PPVKRRLDLETDL [H13L]` — result for “normalised enrichment score”: 7.03.
`PPVTRRLDLETDH [K4T]` — result for “normalised enrichment score”: 1.92.
`PPVKRRLDLETDW [H13W]`: “normalised enrichment score” 6.94.
Under “normalised enrichment score”, `PPVKRRLDLEGDH [T11G]` is recorded as 6.09.
`PPVKRRLDLRTDH [E10R]` — result for “normalised enrichment score”: 6.21.
